Literature values that unrelated publications cite.
Each line is one published result; not all experiments were run side by side. “And” joins repeats or separate records; there may be more than shown. Numbers after ± are the reported error.
OfChi-h: Chitinase (OfChi-h, Ostrinia furnacalis, UniProt Q4AE59)
DRD3: D(3) dopamine receptor (DRD3, Homo sapiens, UniProt P35462)
Chain of UniProt P35462 (whole entry, looked up): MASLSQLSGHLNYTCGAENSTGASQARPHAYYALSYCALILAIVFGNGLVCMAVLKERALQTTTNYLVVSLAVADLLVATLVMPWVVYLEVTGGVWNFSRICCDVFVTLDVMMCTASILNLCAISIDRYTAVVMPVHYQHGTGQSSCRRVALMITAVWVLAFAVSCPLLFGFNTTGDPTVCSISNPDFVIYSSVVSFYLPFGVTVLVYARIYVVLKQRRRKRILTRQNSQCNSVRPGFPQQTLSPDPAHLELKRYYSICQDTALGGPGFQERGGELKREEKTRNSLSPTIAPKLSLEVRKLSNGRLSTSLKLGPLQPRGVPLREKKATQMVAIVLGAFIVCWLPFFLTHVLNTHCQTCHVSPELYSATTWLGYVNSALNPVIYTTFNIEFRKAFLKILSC
Chain of UniProt P27338 (whole entry, looked up): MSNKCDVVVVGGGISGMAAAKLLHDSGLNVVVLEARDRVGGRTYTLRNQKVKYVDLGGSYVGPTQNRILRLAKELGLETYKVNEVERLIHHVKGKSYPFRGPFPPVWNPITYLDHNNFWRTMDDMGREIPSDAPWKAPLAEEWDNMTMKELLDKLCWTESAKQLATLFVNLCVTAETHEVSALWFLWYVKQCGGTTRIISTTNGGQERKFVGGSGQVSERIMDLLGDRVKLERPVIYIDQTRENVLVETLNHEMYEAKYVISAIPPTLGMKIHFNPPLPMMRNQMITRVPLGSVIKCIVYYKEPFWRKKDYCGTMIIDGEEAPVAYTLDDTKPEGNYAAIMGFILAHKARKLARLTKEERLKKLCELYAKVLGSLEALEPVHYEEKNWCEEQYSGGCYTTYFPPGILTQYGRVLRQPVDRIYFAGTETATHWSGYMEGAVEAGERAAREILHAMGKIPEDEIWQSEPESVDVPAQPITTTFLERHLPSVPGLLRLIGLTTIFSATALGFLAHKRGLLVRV
Chain of UniProt P40337 (whole entry, unmodified, looked up): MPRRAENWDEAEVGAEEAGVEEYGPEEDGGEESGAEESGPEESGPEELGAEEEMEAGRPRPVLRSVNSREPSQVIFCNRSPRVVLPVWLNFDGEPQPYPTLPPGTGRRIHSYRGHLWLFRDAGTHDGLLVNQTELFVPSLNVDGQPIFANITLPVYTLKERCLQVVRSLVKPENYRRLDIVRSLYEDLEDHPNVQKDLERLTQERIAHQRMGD
Chain of UniProt Q15858 (whole entry, looked up): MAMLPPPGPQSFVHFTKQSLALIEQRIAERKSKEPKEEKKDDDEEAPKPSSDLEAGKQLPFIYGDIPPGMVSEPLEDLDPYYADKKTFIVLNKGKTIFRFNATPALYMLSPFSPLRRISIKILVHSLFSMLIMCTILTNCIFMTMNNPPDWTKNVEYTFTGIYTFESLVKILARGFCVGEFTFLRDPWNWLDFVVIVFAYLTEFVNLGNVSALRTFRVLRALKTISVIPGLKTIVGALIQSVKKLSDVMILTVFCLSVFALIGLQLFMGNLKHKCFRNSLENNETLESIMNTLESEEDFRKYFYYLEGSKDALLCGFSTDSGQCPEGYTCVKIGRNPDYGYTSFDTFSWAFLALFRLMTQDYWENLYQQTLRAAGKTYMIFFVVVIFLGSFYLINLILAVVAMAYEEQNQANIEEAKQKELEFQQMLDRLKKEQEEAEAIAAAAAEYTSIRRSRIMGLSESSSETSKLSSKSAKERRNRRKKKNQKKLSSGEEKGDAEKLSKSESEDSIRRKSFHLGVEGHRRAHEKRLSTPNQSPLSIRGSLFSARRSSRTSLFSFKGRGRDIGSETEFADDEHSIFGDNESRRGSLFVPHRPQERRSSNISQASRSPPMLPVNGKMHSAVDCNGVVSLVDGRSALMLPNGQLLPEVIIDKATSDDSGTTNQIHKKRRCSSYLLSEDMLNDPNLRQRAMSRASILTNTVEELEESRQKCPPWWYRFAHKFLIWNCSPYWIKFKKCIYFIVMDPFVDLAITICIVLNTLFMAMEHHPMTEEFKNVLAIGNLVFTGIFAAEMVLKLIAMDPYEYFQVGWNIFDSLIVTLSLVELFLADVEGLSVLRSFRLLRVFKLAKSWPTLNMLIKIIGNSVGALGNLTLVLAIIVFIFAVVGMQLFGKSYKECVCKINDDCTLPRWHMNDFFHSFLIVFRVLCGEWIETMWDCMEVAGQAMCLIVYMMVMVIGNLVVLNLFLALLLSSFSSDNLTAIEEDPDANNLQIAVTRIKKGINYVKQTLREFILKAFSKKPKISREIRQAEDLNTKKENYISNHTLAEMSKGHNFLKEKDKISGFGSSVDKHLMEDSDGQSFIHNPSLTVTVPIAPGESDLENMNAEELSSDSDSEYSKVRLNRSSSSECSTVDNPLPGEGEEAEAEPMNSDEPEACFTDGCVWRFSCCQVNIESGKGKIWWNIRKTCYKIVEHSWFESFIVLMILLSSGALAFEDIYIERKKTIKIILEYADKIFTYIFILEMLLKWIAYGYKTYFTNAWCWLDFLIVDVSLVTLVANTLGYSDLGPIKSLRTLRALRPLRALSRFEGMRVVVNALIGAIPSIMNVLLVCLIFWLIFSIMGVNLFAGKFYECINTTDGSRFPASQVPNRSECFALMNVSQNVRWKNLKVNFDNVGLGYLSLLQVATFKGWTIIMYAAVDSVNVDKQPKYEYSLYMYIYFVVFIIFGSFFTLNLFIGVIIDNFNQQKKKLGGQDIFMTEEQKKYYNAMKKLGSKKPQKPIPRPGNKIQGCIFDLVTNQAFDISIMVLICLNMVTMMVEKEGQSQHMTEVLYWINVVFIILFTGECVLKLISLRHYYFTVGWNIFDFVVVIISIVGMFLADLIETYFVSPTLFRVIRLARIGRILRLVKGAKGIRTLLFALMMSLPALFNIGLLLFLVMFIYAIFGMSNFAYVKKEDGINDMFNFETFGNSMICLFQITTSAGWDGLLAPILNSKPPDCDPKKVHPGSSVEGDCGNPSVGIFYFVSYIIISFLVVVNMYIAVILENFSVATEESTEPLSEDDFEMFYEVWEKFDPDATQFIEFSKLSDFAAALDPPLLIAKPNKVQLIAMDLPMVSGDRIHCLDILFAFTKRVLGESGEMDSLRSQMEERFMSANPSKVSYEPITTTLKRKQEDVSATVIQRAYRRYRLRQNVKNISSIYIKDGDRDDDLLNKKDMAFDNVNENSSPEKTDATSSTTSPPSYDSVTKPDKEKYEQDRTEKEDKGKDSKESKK

Compound	target or system	assay	test system	setting	how to read	endpoint	value
CN(C)Cc1ccccc1Sc1ccc(C#N)cc1N	serotonin transporter	–	–	–	–	Ki	1.1 nM
O=c1[nH]c(O)nc2c([C@@H]3N[C@H](COP(=O)(O)O)[C@@H](O)[C@H]3O)c[nH]c12	human HGPRT	inhibitor	–	–	–	Ki	> 100000 nM
Cn1cc2c3c(c[nH]c(=O)c31)CN(c1ccccn1)c1ccc(CS(C)(=O)=O)cc1-2	BRD4	inhibitor	–	–	–	Ki	13 nM
COc1cc2ncnc(Oc3ccc(N)cc3F)c2cc1OC	WDR5	–	–	–	–	Ki	61000 nM
CON1C(=O)C(=CC=Cc2ccc3c(c2)OCO3)SC1=S	OfChi-h	–	–	–	–	Ki	490 nM
NS(=O)(=O)c1nnc(NC(=O)CN2CCOCC2)s1	Enterococcus faecalis gamma-carbonic anhydrase	enzyme activity, inhibitor	–	–	–	Ki	56.4 nM
Cc1cc2c(c(O)c1O)C(=O)c1c(O)cc(O)cc1C2=O	Amine oxidase [flavin-containing] B (MAOB, Homo sapiens, UniProt P27338)	–	–	–	–	Ki	2410 nM
O[C@@H]1Cc2cccc(OCCF)c2C[C@H]1N1CCC(c2ccccc2)CC1	rat sigma-1 receptor	binding	–	–	–	Ki	209 ± 94 nM
O=C(C=C(O)C(F)(F)C(F)(F)F)c1ccc(NCc2ccc(F)cc2)nc1	Plasmodium falciparum formate-nitrite transporter	binding, FCCS	isolated protein	–	–	Ki	16 ± 3 nM
CCn1nc(C2CC2)cc1Nc1nc(C(=O)NC)nc2[nH]c3cc(-c4c(C)noc4C)c(OC)cc3c12	Bromodomain-containing protein 4, BD1 (BRD4, Homo sapiens, UniProt O60885)	binding	–	bromodomain 1	–	Ki	0.5 ± 0.2 nM
COCCCNc1ccc(C(=O)C=C(O)C(F)(F)C(F)(F)F)cn1	Plasmodium falciparum formate-nitrite transporter PfFNT	binding, affinity-isolated protein	–	–	–	Ki	55 nM
O=c1c(-c2cccc(F)c2)c[nH]c2ccnc(Cl)c12	WDR5	–	–	–	–	Ki	2600 nM
CC(C)(C)Nc1ccc(C(=O)C=C(O)C(F)(F)C(F)(F)F)cn1	Plasmodium falciparum formate-nitrite transporter	binding, FCCS	isolated protein	–	–	Ki	239 ± 101 nM
Oc1c(Cc2c[nH]c3ccccc23)cc(Cl)c2cccnc12	COLO 320 ABCB1-overexpressing	cell viability	–	–	–	IC50	4870 nM
O=c1[nH]cnc2c(CNC(CO)COP(=O)(O)O)c[nH]c12 (racemic)	human HGPRT	inhibitor	–	–	–	Ki	> 10000 nM
O=C(C=C(O)C(F)(F)C(F)(F)C(F)(F)F)c1cccnc1	Plasmodium falciparum formate-nitrite transporter	binding, FCCS	isolated protein	–	–	Ki	30 ± 3 nM
COc1ccccc1N1CCC2(CCN(CCCSc3nnc(-c4ccccc4)n3C)CC2)CC1	DRD3	binding	–	–	–	Ki	12 nM
O=c1[nH]cnc2c(CN[C@@H](CO)CCP(=O)(O)O)c[nH]c12	human HGPRT	inhibitor	–	–	–	Ki	16000 ± 1000 nM

Compound	target or system	assay	test system	setting	how to read	endpoint	value
Cc1ncsc1-c1ccc2c(c1)OCCOCCOC[C@@H](NC(=O)C[C@@H]1N=C(c3ccc(Cl)cc3)c3c(sc(C)c3C)-n3c(C)nnc31)COCCOCCOCC(=O)N[C@@H](C(C)(C)C)C(=O)N1C[C@H](O)C[C@H]1C(=O)NC2	von Hippel-Lindau disease tumor suppressor, with Elongin B/C (VHL, Homo sapiens, UniProt P40337)	isothermal titration calorimetry	–	VCB titrated into compound	–	ΔG	-10 kcal/mol
O=c1[nH]cnc2c(CNCC(O)CP(=O)(O)O)c[nH]c12 (racemic)	human HGPRT	inhibitor	–	–	–	Ki	> 10000 nM
COc1ccc(Nc2nc(Nc3ccc(OCC[18F])cc3)ncc2Br)cc1	–	–	S180 tumour-bearing mice	intravenous, 30 min	relative to: tumour over blood	tumour to tissue ratio	1.69
Cn1c(SCCCN2CCOC(c3ccc(C(F)(F)F)cc3)C2)nnc1-c1ccc(-c2cnco2)cc1 (stereo not drawn)	DRD3	binding	–	–	–	Ki	4.9 nM
Cc1sc(-c2ccc(C(F)(F)F)cc2)nc1-c1nn[nH]c1C#N	–	–	ZDF rat	10 mg/kg/day, 6 weeks	–	HbA1c at end of treatment	8.44 ± 0.18%
Nc1nc2c([C@@H]3N[C@H](COP(=O)(O)O)[C@@H](O)[C@H]3O)c[nH]c2c(=O)[nH]1	human HGPRT	inhibitor	–	–	–	Ki	4.6 ± 1 nM
CC(C)CNc1ccc(C(=O)C=C(O)C(F)(F)C(F)(F)F)cn1	Plasmodium falciparum formate-nitrite transporter	binding, FCCS	isolated protein	–	–	Ki	30 ± 3 nM
O=c1ccc(OCCCN2CCCCC2)nn1-c1ccc(Cl)c(Cl)c1	Sodium channel protein type 9 subunit alpha (SCN9A, Homo sapiens, UniProt Q15858)	–	–	1.0 µM	–	inhibition	24.6 ± 1.2%
O=C(C=C(O)C(F)(F)C(F)(F)F)c1ccc(NCC2CC2)nc1	Plasmodium falciparum formate-nitrite transporter	binding, FCCS	isolated protein	–	–	Ki	18 ± 3 nM
COc1ccccc1N1CCN(CCCCNC(=O)c2ccc3[nH]c(=O)sc3c2)CC1	DRD3	binding	–	–	–	Ki	0.28 nM
c1ccc2c(c1)CCCNC2c1c[nH]c2ncccc12 (stereo not drawn)	COLO 320 ABCB1-resistant colon	cytotoxicity	–	–	–	IC50	68500 nM and 50000 to 80000 nM
OCC1OC(n2cnc3c(NCc4ccc(Br)s4)ncnc32)C(O)C1O (stereo not drawn)	ENT1 (rat)	binding	PC-12	–	–	Ki	68 nM
CC(C)=CCc1c(O)cc2oc3cc(O)c(O)c(CC=C(C)C)c3c(=O)c2c1O	OfChi-h	–	–	–	–	Ki	3900 nM
CCc1c(Cl)cccc1N1CCN(C[C@@H](F)CCNC(=O)c2cc3ccccc3[nH]2)CC1	dopamine D2 receptor	binding	–	–	–	Ki	891 ± 305 nM
O=C(C=C(O)C(F)(F)C(F)(F)F)c1ccco1	Plasmodium falciparum formate-nitrite transporter	binding, FCCS	isolated protein	–	–	Ki	37 ± 5 nM
O=c1c(-c2ccccc2F)c[nH]c2ccnc(Cl)c12	WDR5	–	–	–	–	Ki	665 nM
O=C(/C=C/c1ccc(O)c(O)c1)OC1CC(O)(C(=O)O)CC(OC(=O)/C=C/c2ccc(O)c(O)c2)C1O (stereo not drawn)	OfChi-h	–	–	–	–	Ki	26900 nM
O=C(C=C(O)C(F)(F)C(F)(F)F)c1cccnc1	Plasmodium falciparum formate-nitrite transporter	binding, FCCS	isolated protein	–	–	Ki	35 ± 10 nM

A few entries again:
Compound	target or system	assay	test system	setting	how to read	endpoint	value
CC(C)(C)Nc1ccc(C(=O)C=C(O)C(F)(F)C(F)(F)F)cn1	Plasmodium falciparum formate-nitrite transporter	binding, FCCS	isolated protein	–	–	Ki	239 ± 101 nM
Oc1c(Cc2c[nH]c3ccccc23)cc(Cl)c2cccnc12	COLO 320 ABCB1-overexpressing	cell viability	–	–	–	IC50	4870 nM
O=c1[nH]cnc2c(CNC(CO)COP(=O)(O)O)c[nH]c12 (racemic)	human HGPRT	inhibitor	–	–	–	Ki	> 10000 nM
